Assay results of several laboratories.
Each numbered part is a random draw from the data of one study; scales do not carry over between parts. Positions count from the first letter of the parent shown.

Block 1 — technique: DHFR PCA, deep sequencing; sample: yeast; together with: (+)-ABA 2500 µM; relative to: wild-type fitted maximum; reading: higher = stronger binding; quantity: relative binding score
Target: ABI1, truncated, D143A, DHFR fusion (Arabidopsis thaliana)
Setting: methotrexate growth selection, single substitutions
Starting sequence: PYL1, truncated, DHFR fusion (Arabidopsis thaliana); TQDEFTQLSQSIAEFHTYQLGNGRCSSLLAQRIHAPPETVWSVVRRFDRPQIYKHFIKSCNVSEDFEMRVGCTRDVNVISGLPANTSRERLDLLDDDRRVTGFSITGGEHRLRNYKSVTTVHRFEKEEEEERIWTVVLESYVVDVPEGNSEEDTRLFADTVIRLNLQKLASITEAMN
A30T: 100%
V145W: 70.1%
D153R: 10.8%
Y18L: 94%
V40H: -0.967%
K168W: 91.3%
R90A: 90.3%
Y18M: 95%
A13H: 102%
L166W: 9.16%

Block 2 — organism: Saccharomyces cerevisiae; observed: binding; technique: yeast competitive growth sequencing; form: peptide; strain: cyclin A1-Cln2 strain; sample: peptide tiling library; setting: pooled screen; reading: direction not given; quantity: enrichment score
AKRSLGFLPQPVPL: -0.229
AEHPKPSACRNLFGPV: -0.206
QYQVVDDIVSKLVFDF: 0.284
HPESPPRKRLKSKGSD: 4.48
EPRNLLSLFEDTLDPT: 1.45
YLYLLLTQSLWCRV: -1.57

Block 3 — technique: protein-binding microarray; form: double-stranded DNA, one strand shown; sample: in vitro; concentration: 250 nM; setting: 60-bp whole probe; together with: salmon DNA 0.4 mg/ml; relative to: random background probes; reading: higher = stronger binding; quantity: log fluorescence; shared flanks, not repeated: GCCTAGCAC … GTCTTGATTCGCTTGACGCTGCTG
Target: Interferon regulatory factor 7, full length, phosphomimetic (IRF7, Homo sapiens, UniProt Q92985, residues 1-503, S101K/S471D/S472D/S475D/S476D/S477D/S483D/S484D/S487D)
Residues (chain): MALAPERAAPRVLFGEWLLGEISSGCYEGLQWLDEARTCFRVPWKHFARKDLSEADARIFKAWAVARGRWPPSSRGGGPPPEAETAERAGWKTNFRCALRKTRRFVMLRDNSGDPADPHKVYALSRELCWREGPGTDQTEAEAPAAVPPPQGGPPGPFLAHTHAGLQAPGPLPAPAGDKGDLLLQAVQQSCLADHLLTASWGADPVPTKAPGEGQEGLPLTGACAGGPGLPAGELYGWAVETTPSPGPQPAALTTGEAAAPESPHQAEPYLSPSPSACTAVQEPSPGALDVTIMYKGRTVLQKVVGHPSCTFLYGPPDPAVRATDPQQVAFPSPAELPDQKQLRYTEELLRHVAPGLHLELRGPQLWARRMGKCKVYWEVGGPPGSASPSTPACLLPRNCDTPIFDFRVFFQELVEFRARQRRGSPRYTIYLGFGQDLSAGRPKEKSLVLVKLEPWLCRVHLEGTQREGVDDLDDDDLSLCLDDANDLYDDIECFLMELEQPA
TTAGGTTTCGAGTATCGGTTAGTGCTA: 6.51 z-score
TCATTTTTTTTTTTTTAACTGTGCTAG: 0.633 z-score
TTAGGTATCGACAGTGGGTTAGTGCTA: -0.416 z-score
GACGATATCGGGTTGCGAGACGTGCTA: -0.00396 z-score
TCATGTTTACAGATGTTACTGTGCTAG: 0.503 z-score
GACGATTTCAGTTCCGTGACGTGCTAG: 0.549 z-score
TTAGGACTGGACTATGGGTTAGTGCTA: -0.384 z-score
ATTCATATATATATGAAAAAGTGCTAG: 0.837 z-score
TACGGTATCGACTTTCGGGACGTGCTA: 1.32 z-score
CAGAATCCAGCTCAGGTTGTGTGCTAG: -0.266 z-score
AACAGGAGCAGATGGGAAGTGTGCTAG: -0.563 z-score
TCATTTCTGTTGTCTGTGACTGTGCTA: 0.969 z-score

Mixed results
PhoQ, residues 284 288 289 292 302 303 SSCCRF — fold induction (PhoP, residues 12 14 15 18 19 LHHSG (Escherichia coli, UniProt P23836); Sort-seq, refers to: YFP reporter; E. coli; PhoQ-PhoP variant library, together with: 10 µM Mg2+; relative to: high Mg2+ state, higher = stronger signaling): 4.78

A few entries again (block 3):
TCATGTTTACAGATGTTACTGTGCTAG: 0.503 z-score
GACGATTTCAGTTCCGTGACGTGCTAG: 0.549 z-score
